Published values collected from several papers.
A part holds a random share of what one study measured.

Set 1
Target: Ras GTPase-activating protein-binding protein 1, full length (G3BP1, Homo sapiens, UniProt Q13283)
Sequence of UniProt Q13283 (whole entry, looked up): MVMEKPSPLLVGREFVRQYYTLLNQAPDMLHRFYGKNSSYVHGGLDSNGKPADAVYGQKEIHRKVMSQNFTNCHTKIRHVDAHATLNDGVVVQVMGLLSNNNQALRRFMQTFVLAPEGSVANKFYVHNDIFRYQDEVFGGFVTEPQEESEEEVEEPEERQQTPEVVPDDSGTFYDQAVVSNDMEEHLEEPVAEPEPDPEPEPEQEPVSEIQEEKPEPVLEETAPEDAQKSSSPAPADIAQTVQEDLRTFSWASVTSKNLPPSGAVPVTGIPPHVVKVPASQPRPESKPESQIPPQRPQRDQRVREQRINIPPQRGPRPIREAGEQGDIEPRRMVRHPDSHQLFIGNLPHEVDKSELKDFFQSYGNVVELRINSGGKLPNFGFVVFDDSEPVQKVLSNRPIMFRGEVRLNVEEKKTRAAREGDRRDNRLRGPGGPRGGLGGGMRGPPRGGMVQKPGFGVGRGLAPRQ
Technique: RNA Bind-n-Seq
Form: RNA
Medium: in vitro
Concentration: 200 nM
Setting: whole 134-nt RNA, ends assumed
Together with: 150 mM LiCl
Relative to: input library
Reading: higher = stronger binding
Each molecule: 7-deaza-guanosine replaces G
Shared flanks, not repeated: GGGAGUUCUACAGUCCGACGAUC … UGGAAUUCUCGGGUGUCAAGG
Sequence	log2 enrichment
GGUGGAAUCCAUAGAGCUCCCCAUGGACAACAAGACCAAUAAGAGGCGUGGGUUCUGCUUUAUUACCUUUAAGGAAGAAGAACCAGUGAA	0.21
AAGUCCUGUGCUACACAUCGUAUGUACCGAAUCGGGAGGGUUUUUUUGGGAAAGGGAAAGUAUUAUGUUACGCCGUUCGGAUCUGCACUU	0.301
UGGAAGUGGCGCUGGCGCCUGAAGAGUUGGAGCUGGAUCCUAUGGCCAUGACCCAGAAGUAUGAGGAGCAUGUGCGGGAGCAGCAGGCUC	-0.064
GCAGGAAGUAAAAACAAAUGGAAAUGCUUCGGAUAGUGGCAGGGGUGGGGGUUGCUAAGGAAAGGGUGGAAAGGGAGUGGGUAAAGAGUU	0.069
CACAGACAACACGCACCCACACAGACACAGAGGGAAGGGGUUGGGAUGGGGACAGGGUGCACAGCAGGGCGGGGUAGGACCCCAGCAAAU	-0.902
UCCUGUGCUACACAUCGUAUGUACCGAAUCGGGGUUUUUUUGGGGAAAGGGGUUUGGGGAAAGUAUUAUGUUACGCCGUUCGGAUCUGCA	-0.331
CUCAAGUCCUGUGCUACACAUCGUAUGUACCGAAUCGGAAAAAAAGGUGGAGGAAAGUAUUAUGUUACGCCGUUCGGAUCUGCACUUCCA	-0.261
GUCCUGUGCUACACAUCGUAUGUACCGAAUCGGAAAAAGGUUUUUUUGGAAAAAAAGGAAAGUAUUAUGUUACGCCGUUCGGAUCUGCAC	-1.78
CCUGUGCUACACAUCGUAUGUACCGAAUCGGGGAAAAAAGGAAAAAAGGGAAAAAAGGGGAAAGUAUUAUGUUACGCCGUUCGGAUCUGC	0.453
UCAAGUCCUGUGCUACACAUCGUAUGUACCGAAUCGGGGAAGGGGAAGGAAGGGGAAAGUAUUAUGUUACGCCGUUCGGAUCUGCACUUC	-0.369
CUCAAGUCCUGUGCUACACAUCGUAUGUACCGAAUCGGGAGGGUUUGGGUGGGAAAGUAUUAUGUUACGCCGUUCGGAUCUGCACUUCCA	-0.561

Set 2
Target: RING finger protein unkempt homolog, zinc fingers 1-6, SBP tag (UNK, Homo sapiens, UniProt Q9C0B0, residues 30-357)
Sequence of UniProt Q9C0B0 (30-357, looked up): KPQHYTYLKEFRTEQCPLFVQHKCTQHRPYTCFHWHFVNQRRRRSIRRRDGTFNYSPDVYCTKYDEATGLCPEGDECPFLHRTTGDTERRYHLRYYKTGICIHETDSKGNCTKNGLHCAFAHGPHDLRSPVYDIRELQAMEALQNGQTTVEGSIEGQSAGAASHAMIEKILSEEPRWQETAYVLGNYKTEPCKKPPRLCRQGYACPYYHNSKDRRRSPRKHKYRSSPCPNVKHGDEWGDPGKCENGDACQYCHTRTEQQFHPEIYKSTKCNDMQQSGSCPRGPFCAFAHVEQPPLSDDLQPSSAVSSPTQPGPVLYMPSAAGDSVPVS
Technique: RNA Bind-n-Seq
Form: RNA
Medium: in vitro
Concentration: 100 nM
Setting: RNA with constant flanks, vertebrate orthologous sites, ends assumed
Relative to: input RNA pool
Reading: higher = stronger binding
Shared flanks, not repeated: GGGAGUUCUACAGUCCGACGAUC … CAACAGAGGAUUGAGCAUCA
Sequence	bound/input enrichment
UAUCUUUAGGAUGAAGCUCUUACACCAAGUGUCACGAGUCUGGAGAACAGAUGGGUUGAGUAGUUGUUCUUAUAAAUUAGUAUCCGUGGAACACAAUCCUUUGUAUGUCAACAUCACAGU	0.804 ratio
AUCUCUCAUUUUAUAUAUCCAAAAAUGACUUUCAAUUUUUAAAGAAUUGCUGGUUUUAAUUAGCUCUGCCCUCCUAAGAUGGUGGUAUAAUUCACCACAAAUAGCUGUCUAUCUGAAUUA	1.06 ratio
AUCUCAUGUAGUUUGUUUUUAAUUUCAAGCAAAAUUGUACUUGAAUGUGUCCCAUUUUGUUAGCACACCUAGACUUGCUGUAACUGUACUCAUGUCCCAGUAUGUACGUUCUUUCUAUGA	1.31 ratio
UCCCGGCAGCGCCAGCGGGGGUAGGCGCCCUUCUCACCCUGCUCCUUCUUUAUUCUAUUUUCCUCAGGACUGACCCUGAGGCUCCUGCUUUUGUGGUUCAUCUCGUAUUUAUUUACCUUU	1.07 ratio
AGUAUGUGUGUACAUUAUUCACAUUCCUCUCUGUUCUGUUGAAAGGAAAAAAAGACAUUUUGACCUUUUUUUAAGGUUAUUGACUUAAUUUUAUGUUAUUUGGUUGCAUGAAGUUGCCCU	0.254 ratio
CAUUAACACACAAAAUGUCUCCAGGGGGGUAUUAGAUUUGAUUUCUUACAUAUAAAACAAACCAACCAACCAUUUUUAAAGUAGAAGAGGGUUUUAGAUAGUAAAUGAAAUAUUCUUUUU	1.62 ratio
AUGGGGGUGGGGUGGGUAAGGGACGUGGACGAUAGGAUGCUACUGGGAUUUUUAAGUGCUCCGGGGUUUGUUUUUCUUCUUCCCACUUUCUGUUUCUGUUCUUCCCAUUCAUUGGAUGCA	0.675 ratio
AUCCCUCAGUGACAGUAUGCCAUCUGUAGCAGAUUCCCACUCUAGUCAUUUUUCUGAAUUUAGUUGUUCUGACUUAGAAAGCAUGAAAACUUCUUGUAGUCAUGGUUCCAAUGAUUAUCA	1.77 ratio
CUGCUUUCAGGUUGUGGCUAAUUGCCCCCCUUCCCAUCUUCCACUUUAAGUUCUUUCCUUUGCCCCCUCCAUAAUCCCUCUCUUAACUCAGACAGGUGUGGAGCAUUUUACUCAGUCAUU	0.532 ratio
CAAAAACGUUUCCACUGGGUUUUGCCUGUAAGAAAAAAAAAAAAAAUGUACCCGAGCACAUAGAGCUUUUUAAUAGCACUAACCAAUGCCUUUUUAGAUGUAUUUUUGAUGUAUAUAUCU	0.705 ratio
GAACCCUAGUUUGUGUGCGCGUUAUCCACAUUCCUCUCUGUUCUGUUGGGAAAAGACAUUUUAACCUUUUUUAAGGUUGAUUUAAGUUCAUAUUAUUUGGUUGCAUGAAGUUGCCCUUAA	0.446 ratio

Set 3
Target: RNA binding protein fox-1 homolog 2, RRM domain, GST-SBP tag (RBFOX2, Homo sapiens, UniProt O43251-10, residues 100-194)
Technique: RNA Bind-n-Seq
Form: RNA
Medium: in vitro
Concentration: 365 nM
Setting: natural RNA segment, single round, ends assumed
Relative to: no-protein control
Reading: higher = stronger binding
Shared flanks, not repeated: GGGAGUUCUACAGUCCGACGAUC … UGGAAUUCUCGGGUGCCAA
Target sequence (chain): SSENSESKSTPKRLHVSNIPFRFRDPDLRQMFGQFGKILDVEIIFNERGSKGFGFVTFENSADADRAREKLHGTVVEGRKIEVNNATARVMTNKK
Sequence	RBNS enrichment (R)
CACUUCUCUUUCCCAGCCCUAGUUCUGGGUUCCCCAGUGGGGCAAGGGGUGGUGGAGGCAGUGCCCAUGCUGGGCUGAGCCUGCAGUUUUUGUGAGCUCUGGGCUUGUCU	0.396
UGAUGAGUGAAUUCAGUUCCCUACCAACUAAUGCGCAGAAUUGAAGAAUCCCAUCCUGCACACAUUGGUUGGUGCCCUGGGUGGAAUAGCAACGACACCAACUGAUAAAA	0.806
CGUCCCCCACCCUGCGGGACAGUGAACUGUGCAUAAGUCAGCGGAGGGCGACGACCCUCGCCGCGGGACCCGGGACUCGAGCCCGGGACUUCGCAGCUACAGCACAUCUA	0.188
UCCAAGGGACAUACACUGAAACAUACAGCUGUCUAGGUUAUAAAUGUGUAGGUCUACAACUGCUAGUCUAAAAACUGUUUGCACCGAGCCCUCUGAUCAGAGUGGAUGAG	0.456
AGUGAUCCUCCCACCUCAGCCUCCUGAGUAGCUGGGACCAUAGGCUCACAACACCACACCUGGCAAAUUUGAUUUUUUUUUUUUUUCCAGAGACGGGGUCUCGCAACAUU	0.299
UCCAGCCUUGCCAGCCUGACUCAGAUCCUCAUCUCUGGGCCUUUCUCCCUCCGAUGUUGGACUGCCUGAUGCUCCCAAUGACAUAUCCAAUGCUCCUGGCAUUUCUGGAG	0.539
CAGCCUCCCAGCAGGACAACAAAUGGAGGUCCAUCUAUCUUUGUCACCAAGCUGAGGUGUCUGAAGCCUGGAGCUACUGGGACCCCUCCUCUCCUCUAUAGCUAUUAGAU	0.339
CCUCUCCCAGCUCUUCCCUUUCCCAGUUGUCCCCACUGUAACUCAAAAGGAUGGAAUACCAAGGUCUUUUUAUUCCUCGUGCCCAGUUAAUCUUGCUUUUGUUGGUCAGA	0.707
UUGAGACAGGACGGGUCCCACACUCCCUGCCUCUGUCUCACUCAACACUCAGGCUAAGAAGGAGCGGGUCACCACAGACAAGAGUGGGGCCAUAUGUAGCACAGCAAUAU	0.638
UUGUAGUGUUAAGAUUCCAUACAGAGAGCCCUGUUAUGCAUACCAGUACUACAAAAUAAAGGGGAAAGAAUUCUUGUAGAUAGAAUCCCAAGAGAGCUCAUUUAAUUGUG	0.682
AUUUCUUAUUUGUUUGGUCACUGCUACACCUUAGCAGCUCUUCCCCUUUCCUGGGGGAUGUGCACGGCAGCUUGAGCCUGUCACGUGGUCAAGGCCCGGCCCCAUCAGAG	0.53
GGCUGGGGGUGGCAAAAUCAAUGACUUUUCUAACUAGGGAAGCCCUGUGGCCUCCAAAUUCACUGACAUGUUUUGGAACAGCUAGAAAUAUGAGCAGCAUGGAUAACCUG	1.07

Set 4
Target: Interferon regulatory factor 7, full length, phosphomimetic (IRF7, Homo sapiens, UniProt Q92985, residues 1-503, S471D/S472D/S475D/S476D/S477D/S483D/S484D/S487D)
Sequence of UniProt Q92985 (whole entry, unmodified, looked up): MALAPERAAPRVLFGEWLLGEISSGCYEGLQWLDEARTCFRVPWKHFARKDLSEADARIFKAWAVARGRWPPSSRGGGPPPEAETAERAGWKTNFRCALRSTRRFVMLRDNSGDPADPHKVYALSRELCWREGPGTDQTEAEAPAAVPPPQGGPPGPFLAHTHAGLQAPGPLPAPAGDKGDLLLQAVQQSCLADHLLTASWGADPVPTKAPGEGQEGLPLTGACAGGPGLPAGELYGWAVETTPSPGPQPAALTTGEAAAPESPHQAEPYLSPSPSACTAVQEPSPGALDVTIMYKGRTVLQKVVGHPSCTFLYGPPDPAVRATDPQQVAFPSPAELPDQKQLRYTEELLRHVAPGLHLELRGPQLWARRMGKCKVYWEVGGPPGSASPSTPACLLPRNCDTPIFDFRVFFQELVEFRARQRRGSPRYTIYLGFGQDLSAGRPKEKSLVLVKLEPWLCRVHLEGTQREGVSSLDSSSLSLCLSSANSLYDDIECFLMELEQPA
Technique: protein-binding microarray
Form: double-stranded DNA, one strand shown
Medium: in vitro
Concentration: 2200 nM top
Setting: 60-bp whole probe
Together with: salmon DNA 0.4 mg/ml
Relative to: random background probes
Reading: higher = stronger binding
Shared flanks, not repeated: GCCTAGCAC … GTCTTGATTCGCTTGACGCTGCTG
Sequence	fitted relative affinity
TTAGTTATCGGGACTGGGTTAGTGCTA	0.17 z-score
GACTGTATCGGACTGGGGACGTGCTAG	0.221 z-score
CACGATATCGGGACTGGAGACGTGCTA	0.0793 z-score
TTTTTTTTTTTTTTGGAATGGTGCTAG	1.97 z-score
AATTTTGTCATCTATAATGGAGTGCTA	0.0131 z-score
ATTGGTCTTCACTTGGCAAAGTGCTAG	0.834 z-score
GACGATATCAGTAACGAGACGTGCTAG	0.0804 z-score
TAAGGTTTCGACTTTCGGTTAGTGCTA	10.7 z-score
GACTGTCTCCTTATCCTGACGTGCTAG	1.56 z-score
TTAGGTTCGGGTTTCGGTTAGTGCTAG	6.15 z-score
TAGAAACTCGTGTTTTTCTCCGTGCTA	0.755 z-score
TTTCTTACATGCATCATAACGTGCTAG	2.1 z-score
TTAGACATCAGTCTCGATTAGTGCTAG	0.0764 z-score
AAGTTTTTCATTTTTTTTCAGTGCTAG	1.4 z-score
GACGGACTGGGACTGTGGACGTGCTAG	-1.2 z-score
TTAGATCTCCGTTTCGATTAGTGCTAG	3.24 z-score
TCAACACTCTTCTTTTGCACTGTGCTA	1.29 z-score
GACGAACTGAGTATCGAAACGTGCTAG	0.124 z-score
GACGGACTGGACACTGGGGACGTGCTA	-0.859 z-score

For quick reference, copied from above (set 1):
Sequence	log2 enrichment
UGGAAGUGGCGCUGGCGCCUGAAGAGUUGGAGCUGGAUCCUAUGGCCAUGACCCAGAAGUAUGAGGAGCAUGUGCGGGAGCAGCAGGCUC	-0.064
AAGUCCUGUGCUACACAUCGUAUGUACCGAAUCGGGAGGGUUUUUUUGGGAAAGGGAAAGUAUUAUGUUACGCCGUUCGGAUCUGCACUU	0.301
GGUGGAAUCCAUAGAGCUCCCCAUGGACAACAAGACCAAUAAGAGGCGUGGGUUCUGCUUUAUUACCUUUAAGGAAGAAGAACCAGUGAA	0.21
CUCAAGUCCUGUGCUACACAUCGUAUGUACCGAAUCGGAAAAAAAGGUGGAGGAAAGUAUUAUGUUACGCCGUUCGGAUCUGCACUUCCA	-0.261
UCAAGUCCUGUGCUACACAUCGUAUGUACCGAAUCGGGGAAGGGGAAGGAAGGGGAAAGUAUUAUGUUACGCCGUUCGGAUCUGCACUUC	-0.369
